Measurements pooled from the literature.
Lines come from different studies, so protocols differ. Numbers after ± are the reported error.
Isochorismatase domain-containing protein 1: Isochorismatase domain-containing protein 1 (Homo sapiens, UniProt Q96CN7)
Chain of UniProt Q96CN7 (whole entry, looked up): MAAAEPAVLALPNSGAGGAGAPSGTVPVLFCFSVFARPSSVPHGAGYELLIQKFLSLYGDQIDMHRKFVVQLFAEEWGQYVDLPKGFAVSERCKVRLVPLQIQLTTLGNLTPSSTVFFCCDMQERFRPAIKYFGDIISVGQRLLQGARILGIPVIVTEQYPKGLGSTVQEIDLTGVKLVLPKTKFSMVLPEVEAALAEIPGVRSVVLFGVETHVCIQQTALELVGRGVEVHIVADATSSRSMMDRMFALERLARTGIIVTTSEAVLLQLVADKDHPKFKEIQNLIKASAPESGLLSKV
Chain of UniProt Q14145 (whole entry, unmodified, looked up): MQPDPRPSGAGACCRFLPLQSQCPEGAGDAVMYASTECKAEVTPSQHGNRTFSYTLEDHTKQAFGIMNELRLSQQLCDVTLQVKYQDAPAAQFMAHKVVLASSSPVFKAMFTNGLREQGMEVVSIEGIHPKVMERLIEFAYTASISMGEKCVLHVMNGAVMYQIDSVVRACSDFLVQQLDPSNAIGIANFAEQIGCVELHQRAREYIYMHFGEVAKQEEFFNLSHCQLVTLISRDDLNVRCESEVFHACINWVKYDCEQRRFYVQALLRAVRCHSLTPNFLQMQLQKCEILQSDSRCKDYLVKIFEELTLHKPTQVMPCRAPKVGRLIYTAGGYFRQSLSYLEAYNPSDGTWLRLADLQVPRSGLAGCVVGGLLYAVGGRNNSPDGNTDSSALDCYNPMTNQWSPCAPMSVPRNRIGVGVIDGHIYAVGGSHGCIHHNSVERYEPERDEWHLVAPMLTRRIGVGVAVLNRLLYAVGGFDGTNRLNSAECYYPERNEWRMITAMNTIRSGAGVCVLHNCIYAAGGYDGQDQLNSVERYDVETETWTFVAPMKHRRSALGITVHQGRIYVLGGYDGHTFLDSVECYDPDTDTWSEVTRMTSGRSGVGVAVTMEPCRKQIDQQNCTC
Chain of UniProt P83111 (whole entry, looked up): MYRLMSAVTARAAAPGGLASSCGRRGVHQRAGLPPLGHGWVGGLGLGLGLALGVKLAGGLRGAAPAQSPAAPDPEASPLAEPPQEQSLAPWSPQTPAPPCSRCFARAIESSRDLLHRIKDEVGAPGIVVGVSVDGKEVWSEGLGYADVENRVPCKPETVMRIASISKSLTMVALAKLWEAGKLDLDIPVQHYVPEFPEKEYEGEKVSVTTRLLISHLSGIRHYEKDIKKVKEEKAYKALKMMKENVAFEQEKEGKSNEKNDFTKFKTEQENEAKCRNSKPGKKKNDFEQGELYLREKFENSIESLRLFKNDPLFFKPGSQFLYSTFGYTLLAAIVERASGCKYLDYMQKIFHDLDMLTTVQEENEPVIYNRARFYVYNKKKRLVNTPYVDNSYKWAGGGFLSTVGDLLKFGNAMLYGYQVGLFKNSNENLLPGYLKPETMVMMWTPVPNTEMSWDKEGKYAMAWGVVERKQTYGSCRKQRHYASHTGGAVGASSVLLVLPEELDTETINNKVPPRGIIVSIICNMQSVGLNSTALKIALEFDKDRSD
Chain of UniProt P21673 (whole entry, looked up): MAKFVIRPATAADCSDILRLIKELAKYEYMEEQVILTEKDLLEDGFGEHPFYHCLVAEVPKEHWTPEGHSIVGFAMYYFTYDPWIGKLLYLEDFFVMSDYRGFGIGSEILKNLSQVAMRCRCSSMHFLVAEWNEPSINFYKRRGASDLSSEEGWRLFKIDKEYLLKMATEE
Chain of UniProt P43298 (whole entry, looked up): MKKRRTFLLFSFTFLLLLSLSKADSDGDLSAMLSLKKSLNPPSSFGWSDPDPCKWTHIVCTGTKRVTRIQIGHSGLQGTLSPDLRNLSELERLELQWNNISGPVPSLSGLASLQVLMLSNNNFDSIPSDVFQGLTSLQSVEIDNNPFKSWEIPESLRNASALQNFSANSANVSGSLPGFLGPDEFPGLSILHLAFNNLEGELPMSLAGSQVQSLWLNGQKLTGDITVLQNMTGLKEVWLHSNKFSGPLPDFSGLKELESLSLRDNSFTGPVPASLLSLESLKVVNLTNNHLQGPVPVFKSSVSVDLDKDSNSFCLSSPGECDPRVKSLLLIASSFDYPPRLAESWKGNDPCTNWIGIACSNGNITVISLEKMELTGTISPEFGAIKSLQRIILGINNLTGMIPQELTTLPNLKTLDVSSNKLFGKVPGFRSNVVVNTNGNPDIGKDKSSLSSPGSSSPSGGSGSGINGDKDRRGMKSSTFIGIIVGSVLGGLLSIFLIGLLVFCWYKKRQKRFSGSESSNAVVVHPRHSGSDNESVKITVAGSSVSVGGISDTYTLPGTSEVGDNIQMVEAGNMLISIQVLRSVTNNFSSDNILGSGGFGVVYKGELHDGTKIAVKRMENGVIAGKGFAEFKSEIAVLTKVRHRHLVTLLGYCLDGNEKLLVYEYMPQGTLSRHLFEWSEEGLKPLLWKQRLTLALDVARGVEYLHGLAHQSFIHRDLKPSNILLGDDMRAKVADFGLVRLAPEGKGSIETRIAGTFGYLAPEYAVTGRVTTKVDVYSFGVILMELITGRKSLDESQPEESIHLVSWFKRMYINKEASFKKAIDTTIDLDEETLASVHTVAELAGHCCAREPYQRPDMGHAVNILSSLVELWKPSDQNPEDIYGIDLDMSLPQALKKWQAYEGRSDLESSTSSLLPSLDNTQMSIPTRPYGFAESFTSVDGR
Chain of UniProt P31641 (whole entry, unmodified, looked up): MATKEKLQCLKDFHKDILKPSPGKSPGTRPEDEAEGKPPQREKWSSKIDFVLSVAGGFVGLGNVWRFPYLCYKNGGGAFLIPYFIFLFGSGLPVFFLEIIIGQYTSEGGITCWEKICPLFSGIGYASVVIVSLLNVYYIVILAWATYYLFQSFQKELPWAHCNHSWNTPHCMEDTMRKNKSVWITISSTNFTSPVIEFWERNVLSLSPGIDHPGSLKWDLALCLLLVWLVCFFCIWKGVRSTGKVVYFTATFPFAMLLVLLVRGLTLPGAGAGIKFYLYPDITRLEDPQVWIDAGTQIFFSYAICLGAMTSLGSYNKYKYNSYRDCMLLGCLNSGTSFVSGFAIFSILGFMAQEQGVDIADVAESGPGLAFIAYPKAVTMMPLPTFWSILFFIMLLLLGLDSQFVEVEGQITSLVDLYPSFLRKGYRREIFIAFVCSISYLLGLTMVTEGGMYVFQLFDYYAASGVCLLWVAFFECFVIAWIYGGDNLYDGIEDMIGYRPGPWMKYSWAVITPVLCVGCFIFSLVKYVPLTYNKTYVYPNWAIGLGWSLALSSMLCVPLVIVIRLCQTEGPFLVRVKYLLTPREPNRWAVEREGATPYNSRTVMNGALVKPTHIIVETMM
Chain of UniProt P94040 (whole entry, looked up): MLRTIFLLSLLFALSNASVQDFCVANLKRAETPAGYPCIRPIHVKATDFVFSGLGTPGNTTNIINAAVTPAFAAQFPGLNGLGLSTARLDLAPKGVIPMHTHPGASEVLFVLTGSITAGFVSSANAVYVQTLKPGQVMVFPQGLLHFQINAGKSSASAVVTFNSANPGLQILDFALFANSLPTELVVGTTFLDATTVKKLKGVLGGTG
Chain of UniProt Q9H6E5 (whole entry, looked up): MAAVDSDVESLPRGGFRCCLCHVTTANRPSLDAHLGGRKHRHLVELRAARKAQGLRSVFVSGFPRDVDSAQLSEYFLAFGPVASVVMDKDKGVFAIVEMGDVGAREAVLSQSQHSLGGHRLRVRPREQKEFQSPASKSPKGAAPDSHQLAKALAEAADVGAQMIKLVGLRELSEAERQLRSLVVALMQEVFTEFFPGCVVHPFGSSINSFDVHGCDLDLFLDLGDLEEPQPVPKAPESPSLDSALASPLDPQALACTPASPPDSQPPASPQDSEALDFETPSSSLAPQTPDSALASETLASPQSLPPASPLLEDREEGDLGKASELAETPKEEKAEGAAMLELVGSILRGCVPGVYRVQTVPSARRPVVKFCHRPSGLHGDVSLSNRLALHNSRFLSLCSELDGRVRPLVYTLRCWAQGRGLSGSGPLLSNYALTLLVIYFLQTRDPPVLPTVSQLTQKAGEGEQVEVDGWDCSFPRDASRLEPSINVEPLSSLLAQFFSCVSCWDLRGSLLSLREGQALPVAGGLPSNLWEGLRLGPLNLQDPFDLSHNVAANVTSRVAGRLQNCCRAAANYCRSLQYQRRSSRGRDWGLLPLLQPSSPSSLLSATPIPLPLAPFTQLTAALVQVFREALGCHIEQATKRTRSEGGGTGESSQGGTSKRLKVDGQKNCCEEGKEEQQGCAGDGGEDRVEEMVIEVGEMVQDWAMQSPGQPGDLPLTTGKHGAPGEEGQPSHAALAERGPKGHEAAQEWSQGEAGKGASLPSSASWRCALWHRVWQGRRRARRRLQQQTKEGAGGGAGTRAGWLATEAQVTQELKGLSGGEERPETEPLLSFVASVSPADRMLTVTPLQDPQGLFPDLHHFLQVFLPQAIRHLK
Chain of UniProt P02749 (whole entry, unmodified, looked up): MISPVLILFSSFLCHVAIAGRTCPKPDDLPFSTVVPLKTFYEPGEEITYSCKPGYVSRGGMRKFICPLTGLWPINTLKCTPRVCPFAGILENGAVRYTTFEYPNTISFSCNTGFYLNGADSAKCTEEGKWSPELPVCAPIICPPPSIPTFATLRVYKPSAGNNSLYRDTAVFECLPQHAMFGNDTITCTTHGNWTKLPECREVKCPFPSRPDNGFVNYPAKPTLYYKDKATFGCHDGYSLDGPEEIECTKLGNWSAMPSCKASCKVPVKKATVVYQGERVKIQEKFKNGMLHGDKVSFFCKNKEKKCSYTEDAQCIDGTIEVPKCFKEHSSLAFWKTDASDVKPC

SMILES	tested on	test	system	conditions	how to read	endpoint	value
Nc1nc(/C(=C/CC(=O)O)C(=O)N[C@@H]2C(=O)N3C(C(=O)O)=CCS[C@H]23)cs1	THP-1	pyroptotic LDH release	–	2 µM, 40 min, added: LPS then nigericin	–	inhibition	0.119%
Cc1cc(O)c2c(c1)C(=O)c1cccc(O)c1C2=O	HK-2 co-cultured with HepaRG	MTT	–	33.33 µM, 24 h	reference: untreated control	viability	95 ± 8.55%
CCCCc1nc2cc(/C=C/C(=O)NO)ccc2n1CCN(CC)CC	Isochorismatase domain-containing protein 1	inhibitor, competition pulldown	SW620 and MV4-11 lysate	1 h	–	Kd	> 30.2 µM
N[C@@H](Cc1c[nH]cn1)C(=O)O	acetylcholine receptor, Rana temporaria	channel block, voltage clamp fluctuation	endplate	reduced Na+ mixture, voltage-dependent	–	Kd	~15000 µM
CCCCCCCCCCCCCCCC(=O)OC[C@H](COP(=O)(O)O[C@H]1[C@H](O)[C@@H](OP(=O)(O)O)[C@H](OP(=O)(O)O)[C@@H](OP(=O)(O)O)[C@H]1O)OC(=O)CCCCCCCCCCCCCCC	TUT1 (Homo sapiens, UniProt Q9H6E5)	binding	–	–	–	Kd	0.11 ± 0.026 µM
O=C(CCCCCCNC(=O)c1cnc(N(c2ccccc2)c2ccccc2Cl)nc1)NO	Isochorismatase domain-containing protein 1	inhibitor, competition pulldown	SW620 and MV4-11 lysate	1 h	–	Kd	> 30.2 µM
Cc1ncc(C[n+]2csc(CCO)c2C)c(N)n1	unknown protein (Thermotoga maritima, UniProt Q9WYV6)	isothermal titration calorimetry	–	pH 6, 25 °C	–	Kd	1.58 µM
C=CC(=O)N1CCN(c2nc(OC[C@@H]3CCCN3C)nc3c(F)c(-c4nc(N)cc(C)c4C(F)(F)F)c(Cl)cc23)[C@@H](C)C1	GTPase KRas, GDP-bound (KRAS, Homo sapiens, UniProt P01116, G12D)	binding, surface plasmon resonance	–	–	–	Kd	16.5 ± 0.57 µM
O=C(O)Cc1c[nH]c2ccccc12	TMK1/GLP1, extracellular domain (Arabidopsis thaliana, UniProt P43298+P94040)	binding, microscale thermophoresis	–	–	–	Kd	0.525 µM
CCCN1CCN(c2cccc(-c3cnccc3N3CCCC4(CCNC4=O)C3)c2)CC1 (stereo not drawn)	LACTB (Homo sapiens, UniProt P83111)	SILAC displacement	LS174T-L5 cell lysate	–	–	Kd	0.608 µM
Cn1cc(-c2ccc(S(=O)(=O)n3ccc(/C=C/C(=O)Nc4ccccc4N)c3)cc2)cn1	Isochorismatase domain-containing protein 1	inhibitor, competition pulldown	SW620 and MV4-11 lysate	1 h	–	Kd	> 30.2 µM
C=CS(=O)(=O)c1ccc(Nc2nc(OCC3CCCCC3)c3nc[nH]c3n2)cc1	Kelch-like ECH-associated protein 1, Kelch domain C489A (KEAP1, Homo sapiens, UniProt Q14145, C489A)	binding	–	–	–	Kd	1.79 µM
CC(C)(COP(=O)(O)OP(=O)(O)OC[C@H]1O[C@@H](n2cnc3c(N)ncnc32)[C@H](O)[C@@H]1OP(=O)(O)O)[C@@H](O)C(=O)NCCC(=O)NCCS	Diamine acetyltransferase 1 (Homo sapiens, UniProt P21673)	competitor, competition MS pulldown	SW-620 cell lysate	added: photo-immobilized beads	–	Kd	2.67 µM
O=c1ccn([C@@H]2O[C@H](COP(=O)(O)O)[C@@H](O)[C@H]2O)c(=O)[nH]1	THP-1	pyroptotic LDH release	–	2 µM, 40 min, added: LPS then nigericin	–	inhibition	22.4%
[H]/N=C(/N)NCC(=O)O	SLC6A6 (Homo sapiens, UniProt P31641, Y138A)	microscale thermophoresis	–	Y138A mutant	–	Kd	no binding
O=C(/C=C/c1ccc(CN(CCO)CCc2c[nH]c3ccccc23)cc1)NO	Isochorismatase domain-containing protein 1	inhibitor, competition pulldown	SW620 and MV4-11 lysate	1 h	–	Kd	> 30.2 µM
O=C1c2cccc(O)c2C(=O)c2c(O)cc(CO)cc21	HK-2 co-cultured with HepaRG	MTT	–	16.67 µM, 24 h	reference: untreated control	viability	97.1 ± 17.2%
CO[C@H]1O[C@H](COS(=O)(=O)O)[C@@H](O[C@@H]2O[C@@H](C(=O)O)[C@@H](O[C@H]3O[C@H](COS(=O)(=O)O)[C@@H](O[C@@H]4O[C@H](C(=O)O)[C@@H](O[C@H]5O[C@H](COS(=O)(=O)O)[C@@H](O)[C@H](O)[C@H]5NS(=O)(=O)O)[C@H](O)[C@H]4O)[C@H](OS(=O)(=O)O)[C@H]3NS(=O)(=O)O)[C@H](O)[C@H]2OS(=O)(=O)O)[C@H](O)[C@H]1NS(=O)(=O)O	Beta-2-glycoprotein 1, domain V (APOH, Homo sapiens, UniProt P02749, M290L/V266L)	tryptophan fluorescence titration	–	pH 7.0, 100 mM NaCl	–	Kd	10 µM
